Assay results of several laboratories.
Numbered parts are unrelated; each lists some results of a single study. Positions count from the first letter of the parent shown.

Sample 1 — target: CREB5, bZIP domain (human); technique: DHFR protein complementation; medium: yeast; relative to: wild-type JUN-FOS pair; direction: higher = stronger binding; measurement: binding fitness
Setting: single substitutions, most at no-binding floor
Parent: JUN, bZIP domain (human); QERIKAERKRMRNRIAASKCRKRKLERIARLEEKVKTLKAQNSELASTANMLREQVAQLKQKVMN; partner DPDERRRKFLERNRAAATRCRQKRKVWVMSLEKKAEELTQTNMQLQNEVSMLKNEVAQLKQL
S47R: -0.203 natural log
V35G: -1.34 natural log
M51T: -0.228 natural log
L38E: -1.4 natural log
L45T: -1.36 natural log
A46Y: -0.518 natural log
L59F: -1.12 natural log
A49E: -1.25 natural log
E32G: -0.812 natural log
E33R: -0.459 natural log
A46D: -0.988 natural log
S47V: -0.169 natural log
E33V: -0.688 natural log
Q41N: -0.639 natural log
T48C: -0.442 natural log
L31S: -1.22 natural log
L38R: -1.31 natural log
R53H: -0.948 natural log
S43M: -0.284 natural log
L45W: -1.18 natural log
A40W: -0.628 natural log

Sample 2 — target: CCNA2, cyclin fold, Cln2 fusion (human); technique: yeast growth competition, sequencing; medium: yeast; setting: strong parent motif; relative to: not given; direction: higher = stronger binding; measurement: normalised enrichment score
Parent: ORC1 docking peptide (human); PRARKRLELGNLG; partner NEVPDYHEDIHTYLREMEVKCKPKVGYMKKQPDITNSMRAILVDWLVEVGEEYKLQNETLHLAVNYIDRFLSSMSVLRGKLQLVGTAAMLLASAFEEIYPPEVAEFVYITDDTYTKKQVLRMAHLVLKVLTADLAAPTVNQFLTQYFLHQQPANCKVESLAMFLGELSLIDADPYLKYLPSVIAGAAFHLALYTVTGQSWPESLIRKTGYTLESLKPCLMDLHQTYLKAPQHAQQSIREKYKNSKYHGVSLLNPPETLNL
PRARKRGELGNLG [L7G]: 0.737
PRARKRLELGMLG [N11M]: 5.39
PRARKRLELGNFG [L12F]: 4.95
PRARKRLELGNLY [G13Y]: 4.14
PRARPRLELGNLG [K5P]: 0.591
PRAIKRLELGNLG [R4I]: 0.408
PRARKRLELKNLG [G10K]: 2.93
PRSRKRLELGNLG [A3S]: 2.93
NRARKRLELGNLG [P1N]: 4.86
PRARKRSELGNLG [L7S]: 0.737
PRARKRLELGNKG [L12K]: 4.57
PRARKRLNLGNLG [E8N]: 4.89
PRARKRLELGQLG [N11Q]: 4.66
PMARKRLELGNLG [R2M]: 4.37
PRARKRLVLGNLG [E8V]: 4.67
PRARKRLELGNLP [G13P]: 5.74
PRARKRLELGNEG [L12E]: 5.52
PRARKRLELGNLD [G13D]: 5.95
PRARKPLELGNLG [R6P]: 1.1
PRARWRLELGNLG [K5W]: 2.16
PRARKRLELGNLQ [G13Q]: 4.93
PRARKRLHLGNLG [E8H]: 3.23
PRARRRLELGNLG [K5R]: 5.95
PRARGRLELGNLG [K5G]: 1.21
PNARKRLELGNLG [R2N]: 4.76

Sample 3 — technique: DHFR PCA, deep sequencing; medium: yeast; added: (+)-ABA 0.39 µM; relative to: wild-type fitted maximum; direction: higher = stronger binding; measurement: relative binding score
Target: ABI1, truncated, D143A, DHFR fusion (Arabidopsis thaliana)
Setting: methotrexate growth selection, single substitutions
Parent: PYL1, truncated, DHFR fusion (Arabidopsis thaliana); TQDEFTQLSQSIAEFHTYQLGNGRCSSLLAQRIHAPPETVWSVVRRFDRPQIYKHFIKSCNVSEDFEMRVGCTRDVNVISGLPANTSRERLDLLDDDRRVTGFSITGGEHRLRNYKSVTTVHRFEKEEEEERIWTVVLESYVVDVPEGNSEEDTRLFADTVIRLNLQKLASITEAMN
P83Q: 15.5%
F56G: -5.72%
V43Q: -9.44%
F15K: -11.8%
G107M: -8.69%
D153R: 0.987%
D96V: -0.668%
W41E: -3.97%
L169E: -0.967%
G23S: 13.7%
G21R: 40%
L112S: -6.12%
C72M: 44.4%
N165G: 2.52%
A30I: 30.6%
E130A: 46%
V143D: 0.458%

Sample 4 — technique: RNA Bind-n-Seq; molecule type: RNA; medium: in vitro; concentration: 200 nM; setting: whole 134-nt RNA, ends assumed; added: 150 mM LiCl; relative to: input library; direction: higher = stronger binding; measurement: log2 enrichment; all molecules: 7-deaza-guanosine replaces G
Target: Ras GTPase-activating protein-binding protein 1, full length (G3BP1, Homo sapiens, UniProt Q13283)
Sequence of UniProt Q13283 (whole entry, looked up): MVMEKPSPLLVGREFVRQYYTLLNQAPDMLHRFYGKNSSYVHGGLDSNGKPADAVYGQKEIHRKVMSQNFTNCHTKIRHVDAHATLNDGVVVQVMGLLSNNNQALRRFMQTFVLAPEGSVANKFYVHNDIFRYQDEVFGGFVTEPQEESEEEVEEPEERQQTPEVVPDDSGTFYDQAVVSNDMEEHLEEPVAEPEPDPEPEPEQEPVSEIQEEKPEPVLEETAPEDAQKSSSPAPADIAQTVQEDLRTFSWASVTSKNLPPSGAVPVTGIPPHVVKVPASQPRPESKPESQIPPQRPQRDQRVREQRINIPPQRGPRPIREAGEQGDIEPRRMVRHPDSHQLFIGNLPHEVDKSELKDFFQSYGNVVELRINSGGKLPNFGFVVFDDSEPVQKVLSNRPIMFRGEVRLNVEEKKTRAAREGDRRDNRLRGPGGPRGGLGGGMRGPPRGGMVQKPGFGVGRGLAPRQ
Constant ends, left off below: GGGAGUUCUACAGUCCGACGAUC … UGGAAUUCUCGGGUGUCAAGG
AGGUCAUGGAUCAAAAAGAACAUAAAUUGAAUGGGAAGGUGAUUGAUCCUAAAAGGGCCAAAGCCAUGAAAACAAAAGAGCCGGUUAAAA: -1.24
AGUCCUGUGCUACACAUCGUAUGUACCGAAUCGGGCCCCCGGGCCCCCGGCCCCCGGGAAAGUAUUAUGUUACGCCGUUCGGAUCUGCAC: -1.5
UAACUUUAGAGGAGGAUCUGAUGGAUAUGGCAGUGGACGUGGAUUUGGGGAUGGCUAUAAUGGUUAUGGAGGAGGACCUGGAGGUGGCAA: -0.0612
AGUCCUGUGCUACACAUCGUAUGUACCGAAUCGGGAAAGGGUUUUUUUGGGUUUGGGAAAGUAUUAUGUUACGCCGUUCGGAUCUGCACU: -1.72
UGGCCCUGGUGGCAUGCGGGGAGGAAGAGGUGGCCUCAUGGAUCGUGGUGGUCCCGGUGGAUUGUUCAGAGGUGGCCGUGGUGGAGACAG: 0.488
UGGCCCUGGUGGCAUGCGGGGAGCAAGAGGUGGCCUCAUGGAUCGUGGUGGUCCCGGUGGAAUGUUCAGAGGUGGCCGUGGUGGAGACAG: 0.47
CCUGUGCUACACAUCGUAUGUACCGAAUCGGAAAAAAGGGGAAAAAAGGGGAAAAAAGGGGAAAGUAUUAUGUUACGCCGUUCGGAUCUG: 0.538
UCAAGUCCUGUGCUACACAUCGUAUGUACCGAAUCGGGUUUUUGGGAGGGAGGGAAAGUAUUAUGUUACGCCGUUCGGAUCUGCACUUCC: -0.892
CAAGUCCUGUGCUACACAUCGUAUGUACCGAAUCGGUUUUUGGUUUUUUUGGUGGAAAGUAUUAUGUUACGCCGUUCGGAUCUGCACUUC: -0.841
ACCAUGCAGGUGGGCAUCUUUGGGAAGUAAAGCAAGGGGGGGAUAGGGAGGGGGGUAACACUUUGGGAACAGGUGGUCCCAGGUCGUUUC: 0.479
UCAAGUCCUGUGCUACACAUCGUAUGUACCGAAUCGGGGCCGGCCGGGGCCGGGAAAGUAUUAUGUUACGCCGUUCGGAUCUGCACUUCC: 0.319

Sample 5 — technique: RNA Bind-n-Seq; molecule type: RNA; medium: in vitro; concentration: not given; relative to: input RNA pool; direction: higher = stronger binding; measurement: bound/input enrichment
Target: RING finger protein unkempt homolog, zinc fingers 1-6, GST-SBP tag (UNK, Homo sapiens, UniProt Q9C0B0, residues 30-357)
Setting: RNA with constant flanks, human and mouse sites, ends assumed
Constant ends, left off below: GGGAGUUCUACAGUCCGACGAUC … CAACAGAGGAUUGAGCAUCA
Residues (chain): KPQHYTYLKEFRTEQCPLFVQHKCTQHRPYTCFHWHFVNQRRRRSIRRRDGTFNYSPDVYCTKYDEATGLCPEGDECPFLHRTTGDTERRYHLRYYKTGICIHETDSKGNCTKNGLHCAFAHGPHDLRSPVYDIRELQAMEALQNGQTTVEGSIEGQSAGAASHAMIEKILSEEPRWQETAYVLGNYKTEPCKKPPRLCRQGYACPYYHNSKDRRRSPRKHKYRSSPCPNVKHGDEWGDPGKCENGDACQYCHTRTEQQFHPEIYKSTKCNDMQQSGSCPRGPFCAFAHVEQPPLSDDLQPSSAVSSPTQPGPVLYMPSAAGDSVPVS
GACAAGCAGGUGCUGGUGCACUGGGGUUUCUACCCAGACAGCUAUGACACUUGGGUCCACAGUAAUGAUGUUGAUGCUGAAAUUGAAGAUGCACCAAUCCCAGAAAAGCCCUGGAAGGUU: 0.293 ratio
AAUGCUGUCCUCAAUGCUGGCGCUGGAGAGGAUAACCUGGAAUUCCGCCUGCAUCUCCGGUAUGAGUUCCUGAUGCUGGGGAUCCAGCCAGUGAUUGAUAAACUCCGGCAACACGAGAAU: 0.0694 ratio
CCUGAUCAGCUGGUGAACAGAUCCAUUCAGCAAGGUUUCUGCUUUAAUAUUCUCUGUGUGGGGGAAACUGGAAUUGGAAAAUCAACACUGAUUGACACAUUGUUUAAUACUAAUUUUGAA: 0.239 ratio
GUCCUUAUUGAUCCUUUUUCUUGGCGUUACCAUUUUUGAAGCAAAGUUAACCUAGCUUUCUAGUUUGAGCUUUCUUUUUGGCCGUCUUUAAAAAAAUUUUUUUUUUUAAUCUAUAAAAUA: 0.767 ratio
CCUUCUGCAUAAGGUUUUUUUGUAGUGUAAUGUCUUAAUCAUAGUCUACCAUCAAAUAUUUUAGGAGUAUCUUUAAUGUUUAGAUAGUAUAUUAGCAGCAUGCAAUAAUUACAUCAUAAG: 1.19 ratio
AUGGCCCUAAAGAUUGUGCCAAGAGUGAUGACGAGGAGAGUCUGACUCUCCCUGAGAAGGAAACUGAAGGUGAAGGGCCCAGCCUGCCCAUGGCCUGCACCAAGACGGAACCCAUCGCCU: 0.084 ratio
GCAGCUGGAGAUUCUAAGUCCAUCAUCACGUGUCGGGUGUCCCUUCUGGAUGGUACUGAUGUUAGUGUGGACUUGCCAAAAAAAGCCAAAGGACAAGAGUUGUUUGAUCAGAUUAUGUAC: 0.259 ratio
CCUCCAAGAAAAAAUCCAGUAACUUCAAGUACUUCAGUAUUGCAUUCUAGUCCUCUUAAUGUUUUUAUGGGAUCUCCAGGGAAAGAGGAAAAUGAAAACCGUGAUCUAACAGCUGAGUCU: 0.29 ratio
ACCUCCAGGGUGUACUCCAGAGACAGGACUCUCAAACCACGCGGAGUGUCCUUUUACCUGGAUAGGACUCUGUGGCUGGCCAAGUCCACCUCCUCAUCCUUUGCAUCAUUUAUAGUUCAA: 0.365 ratio
CUCUGGGCUGUACCAAUGAGGCAGAGCUGUCCAUGGGCCCAUGGCAGACCUGUGAGGAAGACCCAGAACUGAAUACUCCCACAGAUGUUGUGGCUGAUGCUGAUGCCCGUCAUUGGUUAC: 0.204 ratio
GAGGGCAGGGCUCACAGACUCCAAAAGCUGACAAAGUCCCAUCACUUACACAAACAGUGAUUUAGAACAACUUCGAAAAAUCAGGCGGCGAAGUCCCCACGAUGACACCGAGUCCUUUAC: 0.325 ratio

Other studies, line by line
PhoQ, residues 284 288 289 292 302 303 AAQSYM
fold induction (PhoP, residues 12 14 15 18 19 MHTVL (Escherichia coli, UniProt P23836); Sort-seq, refers to: YFP reporter; E. coli; PhoQ-PhoP variant library, added: 10 µM Mg2+; relative to: high Mg2+ state, higher = stronger signaling): 16.6

Repeated from above (sample 3):
D153R: 0.987%
D96V: -0.668%
W41E: -3.97%
L169E: -0.967%
G23S: 13.7%
G21R: 40%
L112S: -6.12%
